Published values gathered from unrelated publications.
Every numbered part comes from another study and shows a few of its results, in no order.
Chain of UniProt P10721 (whole entry, unmodified, looked up): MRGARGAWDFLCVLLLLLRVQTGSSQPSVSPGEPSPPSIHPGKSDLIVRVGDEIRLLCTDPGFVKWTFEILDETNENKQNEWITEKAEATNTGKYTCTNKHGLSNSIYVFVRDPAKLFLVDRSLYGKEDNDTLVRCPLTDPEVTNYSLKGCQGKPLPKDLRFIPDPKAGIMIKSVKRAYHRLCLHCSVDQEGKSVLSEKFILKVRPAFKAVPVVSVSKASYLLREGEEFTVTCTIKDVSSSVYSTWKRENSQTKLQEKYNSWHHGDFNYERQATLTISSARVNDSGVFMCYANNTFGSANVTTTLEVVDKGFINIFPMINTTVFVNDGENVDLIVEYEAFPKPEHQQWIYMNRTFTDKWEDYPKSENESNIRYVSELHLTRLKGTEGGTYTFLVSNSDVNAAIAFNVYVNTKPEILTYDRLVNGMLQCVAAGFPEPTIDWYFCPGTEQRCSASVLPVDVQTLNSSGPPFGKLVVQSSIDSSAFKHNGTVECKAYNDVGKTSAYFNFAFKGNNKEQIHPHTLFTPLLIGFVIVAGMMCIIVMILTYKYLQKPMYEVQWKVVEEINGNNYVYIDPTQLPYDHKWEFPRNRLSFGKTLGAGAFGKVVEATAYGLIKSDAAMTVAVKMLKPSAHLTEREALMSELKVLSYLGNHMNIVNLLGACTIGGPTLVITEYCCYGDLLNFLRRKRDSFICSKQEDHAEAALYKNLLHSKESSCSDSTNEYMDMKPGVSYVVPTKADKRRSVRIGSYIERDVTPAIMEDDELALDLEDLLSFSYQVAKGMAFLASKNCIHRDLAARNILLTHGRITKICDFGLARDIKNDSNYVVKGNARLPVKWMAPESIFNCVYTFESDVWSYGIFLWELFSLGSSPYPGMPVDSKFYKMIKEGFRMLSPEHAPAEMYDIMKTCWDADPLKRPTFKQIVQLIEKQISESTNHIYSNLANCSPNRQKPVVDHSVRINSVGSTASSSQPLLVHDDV
Chain of UniProt Q9H4B4 (whole entry, looked up): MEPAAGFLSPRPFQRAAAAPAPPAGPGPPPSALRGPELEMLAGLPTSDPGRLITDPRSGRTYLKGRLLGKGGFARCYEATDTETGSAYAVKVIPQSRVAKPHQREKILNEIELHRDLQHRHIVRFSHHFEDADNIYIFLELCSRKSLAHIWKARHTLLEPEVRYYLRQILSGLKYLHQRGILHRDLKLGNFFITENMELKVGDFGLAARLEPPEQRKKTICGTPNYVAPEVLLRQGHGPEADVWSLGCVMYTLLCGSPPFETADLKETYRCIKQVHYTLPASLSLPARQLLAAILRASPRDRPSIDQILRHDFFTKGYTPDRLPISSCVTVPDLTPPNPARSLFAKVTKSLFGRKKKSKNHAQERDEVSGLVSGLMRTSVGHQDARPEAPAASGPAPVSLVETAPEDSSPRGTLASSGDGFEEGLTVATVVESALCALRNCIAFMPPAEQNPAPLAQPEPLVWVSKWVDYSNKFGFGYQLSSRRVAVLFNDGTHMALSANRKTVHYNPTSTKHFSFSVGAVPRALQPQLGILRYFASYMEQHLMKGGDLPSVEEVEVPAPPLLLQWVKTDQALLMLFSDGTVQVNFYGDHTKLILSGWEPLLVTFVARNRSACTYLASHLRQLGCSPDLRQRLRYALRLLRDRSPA
Chain of UniProt P31749 (whole entry, looked up): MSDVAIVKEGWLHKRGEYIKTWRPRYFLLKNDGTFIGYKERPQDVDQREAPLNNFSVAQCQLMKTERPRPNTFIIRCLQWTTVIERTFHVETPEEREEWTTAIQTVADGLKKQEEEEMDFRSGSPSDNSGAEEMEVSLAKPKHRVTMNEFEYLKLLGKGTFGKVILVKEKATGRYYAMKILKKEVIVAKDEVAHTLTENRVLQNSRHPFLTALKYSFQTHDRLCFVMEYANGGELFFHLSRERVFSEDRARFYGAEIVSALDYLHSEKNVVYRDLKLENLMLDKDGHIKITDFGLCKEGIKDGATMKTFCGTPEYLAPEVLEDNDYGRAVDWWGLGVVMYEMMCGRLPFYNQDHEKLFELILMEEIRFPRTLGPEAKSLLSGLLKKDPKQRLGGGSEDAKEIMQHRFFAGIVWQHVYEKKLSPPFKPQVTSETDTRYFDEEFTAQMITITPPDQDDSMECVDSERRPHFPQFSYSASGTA
Chain of UniProt P00519 (whole entry, looked up): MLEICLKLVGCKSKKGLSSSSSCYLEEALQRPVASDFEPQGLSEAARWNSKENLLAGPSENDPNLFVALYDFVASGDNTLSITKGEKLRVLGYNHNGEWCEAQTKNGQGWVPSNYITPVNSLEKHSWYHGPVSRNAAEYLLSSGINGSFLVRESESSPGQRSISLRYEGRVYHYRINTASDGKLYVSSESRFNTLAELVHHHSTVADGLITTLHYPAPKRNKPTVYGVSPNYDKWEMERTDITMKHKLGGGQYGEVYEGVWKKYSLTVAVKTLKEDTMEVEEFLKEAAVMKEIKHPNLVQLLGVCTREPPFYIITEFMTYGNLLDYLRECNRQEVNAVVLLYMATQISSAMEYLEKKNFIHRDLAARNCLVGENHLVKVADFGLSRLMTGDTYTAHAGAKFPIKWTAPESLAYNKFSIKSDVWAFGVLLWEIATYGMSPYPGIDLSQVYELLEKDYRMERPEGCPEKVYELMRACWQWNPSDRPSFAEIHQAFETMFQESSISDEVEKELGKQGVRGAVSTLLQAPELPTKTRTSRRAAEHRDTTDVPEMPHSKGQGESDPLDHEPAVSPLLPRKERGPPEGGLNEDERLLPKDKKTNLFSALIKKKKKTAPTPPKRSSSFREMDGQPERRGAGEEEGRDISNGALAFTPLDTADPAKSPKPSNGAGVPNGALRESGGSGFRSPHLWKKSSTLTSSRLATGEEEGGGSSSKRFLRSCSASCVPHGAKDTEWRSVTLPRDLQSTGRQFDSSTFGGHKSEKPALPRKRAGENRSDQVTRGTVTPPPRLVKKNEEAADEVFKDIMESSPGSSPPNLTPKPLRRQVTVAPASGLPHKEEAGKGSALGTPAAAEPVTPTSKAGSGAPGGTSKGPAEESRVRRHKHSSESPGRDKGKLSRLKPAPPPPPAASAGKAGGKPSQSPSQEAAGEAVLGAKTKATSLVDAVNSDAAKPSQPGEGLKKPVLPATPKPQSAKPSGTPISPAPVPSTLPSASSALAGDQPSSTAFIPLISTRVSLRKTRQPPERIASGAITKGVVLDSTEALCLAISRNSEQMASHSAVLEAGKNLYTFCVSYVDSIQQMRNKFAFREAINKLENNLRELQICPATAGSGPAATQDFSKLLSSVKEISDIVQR
Chain of UniProt P42681 (whole entry, looked up): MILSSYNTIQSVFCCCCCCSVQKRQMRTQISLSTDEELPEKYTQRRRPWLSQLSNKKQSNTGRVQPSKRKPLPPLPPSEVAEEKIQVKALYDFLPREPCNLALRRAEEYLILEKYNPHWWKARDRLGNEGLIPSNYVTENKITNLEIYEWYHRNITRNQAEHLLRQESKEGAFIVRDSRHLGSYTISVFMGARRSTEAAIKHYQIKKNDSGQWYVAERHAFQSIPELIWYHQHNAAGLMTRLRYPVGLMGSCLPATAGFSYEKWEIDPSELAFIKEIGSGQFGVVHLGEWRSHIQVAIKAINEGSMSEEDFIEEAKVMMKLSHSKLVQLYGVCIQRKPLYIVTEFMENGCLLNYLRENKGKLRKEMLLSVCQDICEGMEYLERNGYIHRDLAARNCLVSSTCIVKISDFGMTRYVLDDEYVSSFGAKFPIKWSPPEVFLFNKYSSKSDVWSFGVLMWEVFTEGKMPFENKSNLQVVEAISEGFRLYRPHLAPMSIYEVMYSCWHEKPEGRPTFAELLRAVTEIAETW
Chain of UniProt Q96L34 (whole entry, looked up): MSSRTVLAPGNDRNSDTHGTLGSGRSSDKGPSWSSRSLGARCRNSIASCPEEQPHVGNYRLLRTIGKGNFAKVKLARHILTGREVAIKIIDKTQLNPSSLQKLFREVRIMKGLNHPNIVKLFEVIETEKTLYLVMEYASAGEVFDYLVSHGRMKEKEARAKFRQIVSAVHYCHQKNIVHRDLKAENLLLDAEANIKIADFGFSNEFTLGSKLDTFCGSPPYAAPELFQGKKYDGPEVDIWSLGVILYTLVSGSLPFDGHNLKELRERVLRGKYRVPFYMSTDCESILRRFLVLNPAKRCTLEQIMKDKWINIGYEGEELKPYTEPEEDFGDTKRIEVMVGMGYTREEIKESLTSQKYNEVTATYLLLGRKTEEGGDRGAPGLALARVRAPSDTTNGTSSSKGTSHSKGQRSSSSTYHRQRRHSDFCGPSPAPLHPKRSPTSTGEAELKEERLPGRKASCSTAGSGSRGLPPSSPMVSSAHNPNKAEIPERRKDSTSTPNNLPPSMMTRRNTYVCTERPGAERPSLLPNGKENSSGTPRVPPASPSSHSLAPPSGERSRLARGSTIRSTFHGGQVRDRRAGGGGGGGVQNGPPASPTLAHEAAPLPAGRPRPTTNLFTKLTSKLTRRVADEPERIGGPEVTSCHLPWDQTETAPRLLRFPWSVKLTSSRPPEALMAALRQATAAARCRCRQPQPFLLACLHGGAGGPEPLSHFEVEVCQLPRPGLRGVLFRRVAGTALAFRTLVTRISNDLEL

Series 1 — organism: Plasmodium berghei; mode: inhibitor; cells: Huh-7; strain: GFP-expressing sporozoites, liver stage; concentration: 10 µM; time: 24 h; baseline: untreated control
SMILES | infection rate [%]
C[C@]12CC[C@@H]3c4ccc(O)cc4CC[C@H]3[C@@H]1CCC2=O | 111
CC(N)C(=O)OC(C)(C)Cc1ccc(Cl)cc1 (stereo not shown) | 103
CCN(CC)CCOC(=O)C(c1ccccc1)c1ccccc1 | 90.5
CN(C)CC/C=C1/c2ccccc2Sc2ccc(Cl)cc21 | 63.2
CC(=O)OCC(=O)[C@H]1CC[C@H]2[C@@H]3CCC4=CC(=O)CC[C@]4(C)[C@H]3CC[C@]12C | 75.5
Cc1c(N(C)C)c(=O)n(-c2ccccc2)n1C | 125

Series 2 — effect on: cell-free assay; method: competition with immobilised ligand; concentration: 1 µM
Structure (SMILES): CCOCCn1cc(C(=O)Nc2ccc(-n3nc(-c4cccnc4)cc3C(F)(F)F)cn2)ccc1=O
target | remaining binding [%]
Mitogen-activated protein kinase kinase kinase kinase 5 (MAP4K5, Homo sapiens, UniProt Q9Y4K4) | 95
Mast/stem cell growth factor receptor Kit (KIT, Homo sapiens, UniProt P10721, T670I/V559D) | 100
Tyrosine-protein kinase ABL1, non-phosphorylated (ABL1, Homo sapiens, UniProt P00519) | 94
RAC-alpha serine/threonine-protein kinase (AKT1, Homo sapiens, UniProt P31749) | 95
Tyrosine-protein kinase Yes (YES1, Homo sapiens, UniProt P07947) | 85
Mast/stem cell growth factor receptor Kit (KIT, Homo sapiens, UniProt P10721, V559D/V654A) | 100
Activated CDC42 kinase 1 (TNK2, Homo sapiens, UniProt Q07912) | 81
Epidermal growth factor receptor (EGFR, Homo sapiens, UniProt P00533, del752-759) | 100

Series 3 — effect on: enzyme activity; mode: inhibitor; concentration: 0.5 µM; baseline: control
SMILES: c1cc(-c2cnn3cc(-c4ccc(OCCN5CCCCC5)cc4)cnc23)ccn1
target | remaining activity [%]
Misshapen-like kinase 1 (MINK1, Homo sapiens, UniProt Q8N4C8) | 59.4
Tyrosine-protein kinase TXK (TXK, Homo sapiens, UniProt P42681) | 54.4
Calcium/calmodulin-dependent protein kinase type IV (CAMK4, Homo sapiens, UniProt Q16566) | 92
RAC-beta serine/threonine-protein kinase (AKT2, Homo sapiens, UniProt P31751) | 87.6
Serine/threonine-protein kinase PLK3 (PLK3, Homo sapiens, UniProt Q9H4B4) | 94
Ribosomal protein S6 kinase alpha-4 (RPS6KA4, Homo sapiens, UniProt O75676) | 89.2
G protein-coupled receptor kinase 4 (GRK4, Homo sapiens, UniProt P32298) | 97.9
Serine/threonine-protein kinase MRCK beta (CDC42BPB, Homo sapiens, UniProt Q9Y5S2) | 95.7
Cyclin-dependent kinase 9, with cyclin K (CDK9, Homo sapiens, UniProt P50750) | 36.7
Discoidin domain-containing receptor 2 (DDR2, Homo sapiens, UniProt Q16832) | 90.2
Serine/threonine-protein kinase MARK2 (MARK2, Homo sapiens, UniProt Q7KZI7) | 53.1
Dual specificity protein kinase CLK4 (CLK4, Homo sapiens, UniProt Q9HAZ1) | 5.73
Dual specificity protein kinase CLK3 (CLK3, Homo sapiens, UniProt P49761) | 92.2
MAP/microtubule affinity-regulating kinase 4 (MARK4, Homo sapiens, UniProt Q96L34) | 48.3

Series 4 — effect on: enzyme activity; mode: inhibitor; concentration: 10 µM
Target: Calcium/calmodulin-dependent protein kinase type II subunit alpha (CAMK2A, Homo sapiens, UniProt Q9UQM7)
Chain of UniProt Q9UQM7 (whole entry, looked up): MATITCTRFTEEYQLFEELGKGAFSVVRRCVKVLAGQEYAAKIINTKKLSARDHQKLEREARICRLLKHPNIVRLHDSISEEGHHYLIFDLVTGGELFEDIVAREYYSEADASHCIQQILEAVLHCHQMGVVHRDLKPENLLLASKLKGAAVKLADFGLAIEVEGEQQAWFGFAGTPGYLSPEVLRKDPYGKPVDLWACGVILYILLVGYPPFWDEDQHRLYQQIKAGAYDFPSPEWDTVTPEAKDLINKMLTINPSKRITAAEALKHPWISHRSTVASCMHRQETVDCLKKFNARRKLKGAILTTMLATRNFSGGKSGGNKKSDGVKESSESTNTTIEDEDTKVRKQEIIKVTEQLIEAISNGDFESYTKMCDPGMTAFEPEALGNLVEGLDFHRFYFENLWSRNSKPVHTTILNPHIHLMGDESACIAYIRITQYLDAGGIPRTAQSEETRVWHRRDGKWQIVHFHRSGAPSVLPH
SMILES | inhibition [%]
CO[C@]1(CC[C@@H](C)CO[C@@H]2O[C@H](CO)[C@@H](O)[C@H](O)[C@H]2O)O[C@H]2C[C@H]3[C@@H]4CC=C5C[C@@H](O[C@@H]6O[C@H](CO)[C@@H](O[C@@H]7O[C@@H](C)[C@H](O)[C@@H](O)[C@H]7O)[C@H](O)[C@H]6O[C@@H]6O[C@@H](C)[C@H](O)[C@@H](O)[C@H]6O)CC[C@]5(C)[C@H]4CC[C@]3(C)[C@H]2[C@@H]1C | 8
OCc1cc([C@@H](O)CNCCCCCCOCCOCc2c(Cl)cccc2Cl)ccc1O | -2
CC(C)=CCC[C@](C)(O[C@@H]1O[C@H](CO[C@@H]2O[C@@H](CO)[C@H](O)[C@H]2O)[C@@H](O)[C@H](O)[C@H]1O)[C@H]1CC[C@]2(C)[C@@H]1[C@H](O)C[C@@H]1[C@@]3(C)CC[C@H](O[C@@H]4O[C@H](CO)[C@@H](O)[C@H](O)[C@H]4O[C@@H]4O[C@H](CO)[C@@H](O)[C@H](O)[C@H]4O)C(C)(C)[C@@H]3CC[C@]12C | 10
CCCC/C=C\CCCCCCCc1cc(=O)c2ccccc2n1C | -54
CN1CCC[C@H]1C(=O)O | 4
O=C(/C=C/c1ccc(O)c(O)c1)OC[C@@H](O)CO[C@@H]1O[C@H](CO)[C@@H](O)[C@H](O)[C@H]1O | -15
